Assay results of several laboratories.
Compare with care: the assays were run in different laboratories.
Organism: Escherichia coli

SMILES | test | test system | setting | scale | quantity | value
CCCCCCCCCCCCCCCCCC(=O)N[C@@H](CCCCN)C(=O)N[C@@H](CCCCN)C(=O)N(CCCCN)CC(=O)N[C@@H](CCCCN)C(=O)N[C@@H](CCCCN)C(N)=O | – | K12 | – | – | MBC | 32 µg/mL
CC(C)c1ccc2c(c1)CCC1C(C)(CN(CC(O)C[N+](C)(C)C)CC(O)C[N+](C)(C)C)CCCC21C (centres unmarked) | – | ATCC 25922 | – | relative to: HC50 over MIC | selectivity index | > 4
CC(=NNC(=N)N)c1nnn(-c2ccc(C#CC3(O)CCCCC3)cc2)c1C | – | WI-38, JW55031 tolC mutant | – | relative to: WI-38 IC50 over MIC | selectivity index | 2.19
CCCCCC(=O)NCC(=O)N[C@@H](CC(C)C)C(=O)N[C@@H](CC(C)C)C(=O)N[C@@H](CCCCN)C(=O)N[C@@H](CCCNC(=N)N)C(=O)N[C@H](C(=O)N[C@@H](CCCCN)C(=O)N[C@H](C(=O)N[C@@H](CC(C)C)C(=O)N[C@@H](CC(C)C)C(=O)NCCCC[C@H](NC(=O)[C@H](CCCCNC(=O)[C@H](CC(C)C)NC(=O)[C@H](CC(C)C)NC(=O)[C@@H](NC(=O)[C@H](CCCCN)NC(=O)[C@@H](NC(=O)[C@H](CCCNC(=N)N)NC(=O)[C@H](CCCCN)NC(=O)[C@H](CC(C)C)NC(=O)[C@H](CC(C)C)NC(=O)CNC(=O)CCCCC)[C@@H](C)CC)[C@@H](C)O)NC(=O)[C@H](CC(C)C)NC(=O)[C@H](CC(C)C)NC(=O)[C@@H](NC(=O)[C@H](CCCCN)NC(=O)[C@@H](NC(=O)[C@H](CCCNC(=N)N)NC(=O)[C@H](CCCCN)NC(=O)[C@H](CC(C)C)NC(=O)[C@H](CC(C)C)NC(=O)CNC(=O)CCCCC)[C@@H](C)CC)[C@@H](C)O)C(N)=O)[C@@H](C)O)[C@@H](C)CC | checkerboard | ATCC 25922 | added: polymyxin B | – | FIC index | 0.125
CC[C@H](C)[C@H](NC(=O)[C@H](CO)NC(=O)[C@H](CO)NC(=O)[C@H](Cc1ccccc1)NC(=O)CN)C(=O)N[C@@H](Cc1ccccc1)C(=O)N[C@@H](CCCNC(=N)N)C(=O)NCC(=O)N[C@H](C(=O)N[C@@H](C)C(=O)N[C@@H](CCCCN)C(=O)N[C@@H](Cc1ccccc1)C(=O)N[C@@H](C)C(=O)N[C@@H](CO)C(=O)N[C@@H](CCCCN)C(=O)NCC(=O)N[C@@H](CC(C)C)C(=O)NCC(=O)N[C@@H](CCCCN)C(N)=O)C(C)C | – | ATCC 8739 | pretreated trypsin 0.25 mg/mL | – | MBC | > 128 µM
CCCCCCCCCC(=O)NCC(=O)N[C@@H](CC(C)C)C(=O)N[C@@H](CC(C)C)C(=O)N[C@@H](CCCCN)C(=O)N[C@@H](CCCNC(=N)N)C(=O)N[C@H](C(=O)N[C@@H](CCCCN)C(=O)N[C@H](C(=O)N[C@@H](CC(C)C)C(=O)N[C@@H](CC(C)C)C(N)=O)[C@@H](C)O)[C@@H](C)CC | checkerboard | ATCC 25922 | added: polymyxin B | – | FIC index | 0.25
CC[C@H](C)[C@H](NC(=O)[C@H](CCCCN)NC(=O)[C@H](CCCCN)NC(=O)[C@H](Cc1c[nH]c2ccccc12)NC(=O)[C@H](CC(N)=O)NC(=O)[C@@H](NC(=O)COCCOCCOCCOCCOCCOCCOC(=O)NCCCCCCNC(=O)NCCCCCCNC(=O)Nc1nc(=O)cc(C)[nH]1)C(C)C)C(=O)N[C@@H](CC(C)C)C(=O)NCC(=O)N[C@@H](CCCCN)C(=O)N[C@H](C(=O)N[C@H](C(=O)N[C@@H](CCCCN)C(=O)N[C@H](C(=O)N[C@H](C(=O)N[C@@H](CCCCN)C(N)=O)C(C)C)C(C)C)[C@@H](C)CC)[C@@H](C)CC | – | ATCC 8937, RPMI medium | 24 h, 37 °C | – | LC99.9 | 7.5 µM
CC[C@H](C)[C@H](NC(=O)[C@H](CCCCN)NC(=O)[C@H](CCCCN)NC(=O)[C@H](CC(C)C)NC(=O)[C@H](CCCCN)NC(=O)[C@H](CCC(=O)O)NC(=O)[C@H](CCCCN)NC(=O)[C@@H](NC(=O)[C@H](CCCCN)NC(=O)[C@H](CC(N)=O)NC(=O)[C@H](CCCNC(=N)N)NC(=O)[C@H](Cc1ccccc1)NC(=O)[C@H](CCCCN)NC(=O)[C@H](CCCNC(=N)N)NC(=O)[C@H](CC(C)C)NC(=O)[C@H](CCCNC(=N)N)NC(=O)[C@H](CCCCN)NC(=O)[C@H](CCCNC(=N)N)NC(=O)[C@@H](N)CC(C)C)[C@@H](C)CC)C(=O)NCC(=O)N[C@@H](CCC(N)=O)C(=O)N[C@@H](CCCCN)C(=O)N[C@H](C(=O)N[C@@H](CCC(N)=O)C(=O)NCC(=O)N[C@@H](Cc1ccccc1)C(=O)N[C@H](C(=O)N1CCC[C@H]1C(=O)N[C@@H](CCCCN)C(=O)N[C@@H](CC(C)C)C(=O)O)C(C)C)[C@@H](C)CC | inhibition zone | Am. J16c | – | – | lethal concentration | 1.01 µM
CC[C@H](C)[C@@H]1NC(=O)[C@H](CCC(N)=O)NC(=O)[C@H](CCCCN)NC(=O)[C@H](Cc2ccc(O)cc2)NC(=O)[C@H](CCCNC(=N)N)NC(=O)[C@H](CCCNC(=N)N)NC(=O)[C@@H]2CCCN2C(=O)[C@@H](NC(=O)[C@@H](N)Cc2ccccc2)CSSC[C@@H](C(=O)N[C@@H](CCCCN)C(=O)O)NC(=O)[C@H](CCCCN)NC(=O)[C@H]([C@@H](C)O)NC(=O)CNC(=O)[C@@H]2CCCN2C(=O)[C@H](CC(C)C)NC(=O)CNC(=O)[C@H]([C@@H](C)O)NC(=O)CNC1=O | – | K12 MG1655 | MBC, 2 h, pH 7.4, 37 °C, added: LPS Escherichia coli 026:B6, peptide:LPS 1:1 w/w | – | antibacterial activity | inhibited
CC[C@H](C)[C@H](NC(=O)[C@H](CCCCN)NC(=O)[C@H](CCCCN)NC(=O)[C@H](CC(C)C)NC(=O)[C@H](CCCCN)NC(=O)[C@H](CCC(=O)O)NC(=O)[C@H](CCCCN)NC(=O)[C@@H](NC(=O)[C@H](CCCCN)NC(=O)[C@H](CC(N)=O)NC(=O)[C@H](CCCNC(=N)N)NC(=O)[C@H](Cc1ccccc1)NC(=O)[C@H](CCCCN)NC(=O)[C@H](CCCNC(=N)N)NC(=O)[C@H](CC(C)C)NC(=O)[C@H](CCCNC(=N)N)NC(=O)[C@H](CCCCN)NC(=O)[C@H](CCCNC(=N)N)NC(=O)[C@H](CC(C)C)NC(=O)[C@@H](N)CCCNC(=N)N)[C@@H](C)CC)C(=O)NCC(=O)N[C@@H](CCC(N)=O)C(=O)N[C@@H](CCCCN)C(=O)N[C@H](C(=O)N[C@@H](CCC(N)=O)C(=O)NCC(=O)N[C@@H](Cc1ccccc1)C(=O)N[C@H](C(=O)N1CCC[C@H]1C(=O)N[C@@H](CCCCN)C(=O)N[C@@H](CC(C)C)C(=O)N[C@@H](CCC(N)=O)C(=O)N1CCC[C@H]1C(=O)N[C@@H](CO)C(=O)N[C@@H](CCCCN)C(=O)N[C@@H](CCC(N)=O)C(=O)N[C@@H](CO)C(=O)O)C(C)C)[C@@H](C)CC | inhibition zone | TOP10 | – | – | lethal concentration | 2.85 µM
CC[C@H](C)[C@H](NC(=O)[C@H](Cc1c[nH]c2ccccc12)NC(=O)[C@@H](N)CCCNC(=N)N)C(=O)N[C@@H](CCCNC(=N)N)C(=O)N[C@@H](Cc1c[nH]c2ccccc12)C(=O)N[C@H](C(=O)N[C@@H](Cc1c[nH]c2ccccc12)C(=O)N[C@@H](CCCNC(=N)N)C(=O)N[C@@H](CCCCN)C(=O)N[C@@H](CCCCN)C(=O)N[C@@H](CC(C)C)C(=O)N[C@@H](CCCNC(=N)N)C(N)=O)C(C)C | checkerboard | ATCC 25922 | unit not given, added: 10-N-nonyl acridine orange | lower = stronger synergy | FICI | 0.375
